Results from different studies.
Each line is one published result; not all experiments were run side by side. ± gives the spread as reported. In brackets after ≈: the same amount, converted by molar mass.

The FICI of C#Cc1ccc(O)c(C=NNC(=O)c2ccc(COC)cc2)c1 is reported as 1 (Cryptococcus neoformans; H99; unit not given, with: fluconazole; lower = more synergy).
Cc1c2c(nn1C)CSCc1cc(n(C)n1)CSc1cc(c3ccccc3c1)OCCCc1c(C(=O)O)n(C)c3c-2c(Cl)ccc13 has a fold change of 21.9 (Staphylococcus aureus; label-free quantitative proteomics, item: SAOUHSC_00435 protein; SA113; concentration not given; baseline: untreated control).
O=C(O)C1=CC(=C(c2ccc(O)c(C(=O)O)c2)c2ccc(O)c(C(=O)O)c2)C=CC1=O has an IC50 of 7.94 µM (Plasmodium falciparum; GB4).
CC(C)[C@H]1NC(=O)[C@H](Cc2ccccc2)NC(=O)CNC(=O)[C@@H](Cc2ccccc2)NC(=O)[C@H](CCCCN)NC(=O)[C@@H](CCCNC(=N)N)NC1=O gave an IC90 of over 16 µg/mL (Naegleria fowleri; trophozoites).
C#Cc1cccc(C=NNC(=O)c2ccc(Br)c(Br)c2)c1O: “time to complete kill” 3 h (Cryptococcus neoformans; time-kill; H99; concentration not given).
With CCC(=O)N1CCN(C(=O)c2ccccc2)CC1 the IC50 was 3.16 µM (Plasmodium falciparum; GB4).
Cc1cccc(C(=O)N2CCN(Cc3cccc(NC(=O)c4cccs4)c3)CC2)c1.O=C(O)C(F)(F)F has an EC50 ratio of 4.5 (Plasmodium falciparum; parasite growth, SYBR Green; 72 h; baseline: 3D7-E182D over 3D7).
CC(C)[C@@H]1NC(=O)[C@@H](CCCCN)NC(=O)[C@H](CCCN)NC(=O)[C@@H](CC(=O)O)NC(=O)[C@H](C)NC(=O)[C@H](Cc2c[nH]c3ccccc23)NC(=O)[C@@H](Cc2c[nH]c3ccccc23)NC1=O gave an IC50 of 14.8 µg/mL (Acanthamoeba castellanii; trophozoites).
For Cc1cc(Nc2ccc(C(C)(C)C)cc2)c2[nH]ncc2n1, the EC50 was 0.496 ± 0.19 µM (Plasmodium falciparum; parasite growth, SYBR Green; 3D7 wild type; 72 h).
CCCCCCCCCCCc1c([N+](=O)[O-])oc2ccc3ccccc3c12 has an MIC90 of over 32 µg/mL (Klebsiella pneumoniae; REMA).
With CNC(=O)c1cc(Cl)cc(C)c1NC(=O)c1cc(Br)nn1-c1ncccc1Cl the mortality was 100% (Spodoptera litura; leaf-dip; third instar larvae; 6.25 ppm, 96 h).
CC(=O)Nc1sc(C)c(C)c1CN1CCc2ccccc2C1 gave an EC50 of 0.237 ± 0.06 µM (Plasmodium falciparum; parasite growth, SYBR Green; 3D7 wild type; 72 h).
CNCC[C@@H](Oc1ccccc1C)c1ccccc1 gave an IC50 of 5.01 µM (Plasmodium falciparum; Dd2).
Under “fold MIC reduction”, O=C(O)c1cccc(C(=O)O)n1 is recorded as 128 (Providencia stuartii; NDM-1 producer; 32 µg/mL, with: meropenem; baseline: meropenem alone).
Oc1ccc(-c2nc(-c3ccc(Oc4ccc(C(F)(F)F)cc4)cc3)no2)cc1 has an inhibition of 14 to 39% (Clostridioides difficile; ATCC 43255; 45 µM, 1 h, spores).
With CCCNC(=O)c1ccnc(-c2ccc(CNC3Cc4ccccc4C3)cc2)c1 the EC50 was 1.73 ± 0.16 µM (Plasmodium falciparum; parasite growth, SYBR Green; 3D7 DHODH E182D; 72 h).
CS(=O)(=O)CCCn1c(Cn2c(=O)n(CC(F)(F)F)c3ccncc32)cc2cc(Cl)ccc21: “LS mean difference vs placebo” 0.69 log10 copies/mL (respiratory syncytial virus; RT-qPCR; hospitalized infants 1-24 months, nasal swab; oral, 8 mg/kg daily, day 4, cohort 6-24 months; baseline: placebo).
The MBC50 of CC[C@H](C)[C@H](NC(=O)[C@H](C)NC(=O)[C@H](CCCCN)NC(=O)[C@H](CC(C)C)NC(=O)[C@H](C)NC(=O)[C@@H](NC(=O)[C@H](Cc1c[nH]cn1)NC(=O)[C@H](CC(C)C)NC(=O)[C@@H](NC(=O)[C@@H](NC(=O)[C@H](CCCCN)NC(=O)[C@H](C)NC(=O)[C@H](C)NC(=O)[C@H](CO)NC(=O)[C@H](CCCCN)NC(=O)[C@H](Cc1ccccc1)NC(=O)[C@@H](NC(=O)[C@H](CCCCN)NC(=O)[C@H](CC(C)C)NC(=O)[C@H](Cc1ccccc1)NC(=O)[C@H](CO)NC(=O)[C@H](CCCCN)NC(=O)[C@H](Cc1c[nH]c2ccccc12)NC(=O)[C@H](CCCCN)NC(C)=O)[C@@H](C)O)[C@@H](C)O)C(C)C)[C@@H](C)O)C(=O)N[C@@H](CO)C(=O)N[C@@H](CO)C(N)=O is reported as 8 µg/mL (≈ 2.73 µM) (Citrobacter; 20 strains).
For CN[C@H](CC(C)C)C(=O)N[C@H]1C(=O)N[C@@H](CC(N)=O)C(=O)N[C@H]2C(=O)N[C@H]3C(=O)N[C@H](C(=O)N[C@H](C(=O)O)c4cc(O)cc(O)c4-c4cc3ccc4O)[C@H](O)c3ccc(c(Cl)c3)Oc3cc2cc(c3O[C@@H]2O[C@H](CO)[C@@H](O)[C@H](O)[C@H]2O[C@H]2C[C@](C)(N)[C@H](O)[C@H](C)O2)Oc2ccc(cc2Cl)[C@H]1O, the survival was 80% (Staphylococcus aureus MRSA NCTC 12493; Galleria mellonella larvae; 10 mg/kg, titanium implant biofilm infection).
The EC50 ratio of Cc1[nH]c2ccc(-c3ccccc3)cc2c(=O)c1Br is reported as 3.4 (Plasmodium falciparum; parasite growth, SYBR Green; 72 h; baseline: 3D7-E182D over 3D7).
For Cc1cc(Cl)cc(S(C)(=O)=O)c1NC(=O)c1cc(Br)nn1-c1ncccc1Cl, the mortality was 96.7% (Spodoptera litura; leaf-dip; third instar larvae; 6.25 ppm, 72 h).
For CC12CC3CC(C)(C1)CC(N)(C3)C2, the IC50 was 1 µM (Plasmodium falciparum; GB4).
Nc1nc2ccc(Oc3cccnc3)cc2s1 gave a swarming inhibition of 47.7% (Pseudomonas aeruginosa; swarming area; PA14-lux; 200 µM, 24 h; baseline: DMSO).
For O=C1N=c2cc(Cl)c(Cl)cc2=NC1=O, the IC50 was 3.98 µM (Plasmodium falciparum; GB4).
COc1cc(N[C@H](C(=O)c2c[nH]c3ccc(OC(F)(F)F)cc23)c2ccc(Cl)cc2OC)cc(S(C)(=O)=O)c1 gave an inhibition of -10.8% (dengue virus 2; viral infection, luciferase reporter virus; 0.001 nM, 48 h).
For N=C(N)c1ccc(OCc2cc(Br)cc(COc3ccc(C(=N)N)cc3)c2)cc1, the FICI was 0.078 (Escherichia coli; checkerboard; mcr-1 polymyxin-resistant; unit not given, with: rifampicin; lower = stronger synergy).
CC(C)C[C@H]1NC(=O)[C@H]([C@@H](C)O)NC(=O)[C@@H](CCCN)NC(=O)[C@H](CCCNC(=N)N)NC(=O)[C@@H](Cc2ccccc2)NC1=O gave an IC90 of over 16 µg/mL (Acanthamoeba castellanii; trophozoites).
CCC[C@@H]1C[C@@H](C(=O)N[C@@H]([C@H]2O[C@H](SC)[C@H](O)[C@@H](O)[C@H]2O)[C@H](C)Cl)N(C)C1 has an MIC90 of over 32 µg/mL (Staphylococcus aureus).
The IC50 of C=CCc1ccccc1OCC(O)CNC1(C)CCC(C(C)(C)NC(=O)CBr)CC1 (stereo not drawn) is reported as 3.16 µM (Plasmodium falciparum; Dd2).
With CC(C)[C@@H]1NC(=O)[C@@H](CCCN)NC(=O)[C@H]([C@@H](C)O)NC(=O)[C@@H](CCCN)NC(=O)[C@H](Cc2ccccc2)NC(=O)[C@@H](C)NC(=O)[C@@H](C(C)C)NC(=O)[C@@H](C)NC(=O)[C@H](Cc2c[nH]c3ccccc23)NC(=O)[C@@H](Cc2c[nH]c3ccccc23)NC1=O the IC90 was over 16 µg/mL (Acanthamoeba castellanii; trophozoites).
With CCc1nc2nc(C)cc(Nc3ccc4c(c3)OCCO4)n2n1 the EC50 was 0.61 ± 0.14 µM (Plasmodium falciparum; parasite growth, SYBR Green; 3D7 wild type; 72 h).
C#Cc1cccc(C=NNC(=O)c2ccc(Br)cc2)c1O gave an FICI of 1.67 (Cryptococcus neoformans; H99; unit not given, with: fluconazole; lower = more synergy).
CC(C)[C@@H]1NC(=O)[C@@H](Cc2ccccc2)NC(=O)[C@H](Cc2ccccc2)NC(=O)[C@@H]([C@H](C)O)NC(=O)[C@H]([C@@H](C)O)NC(=O)[C@@H](CCCNC(=N)N)NC1=O gave an IC50 of over 16 µg/mL (Acanthamoeba castellanii; trophozoites).
For CCOC(=O)c1cn(CC)c2cc(O[C@H]3CCN(C(=O)OC(C)(C)C)C3)ccc2c1=O, the EC50 ratio was 1.9 (Plasmodium falciparum; parasite growth, SYBR Green; 72 h; baseline: 3D7-E182D over 3D7).
Cc1ccc2[nH]c3c(c2c1)CCCC3NCCc1ccccc1 (stereo not drawn) — result for “MIC fold change”: 4 (Streptococcus pneumoniae; concentration not given, 10% fetal bovine serum; baseline: without serum).
With Cc1ccccc1C(=O)NN=Cc1ccc(O)c(Br)c1 the FIC index was 1 (Cryptococcus neoformans; with: caspofungin; lower = more synergistic).
The IC50 of CC(C)[C@@H]1NC(=O)[C@@H](CCCNC(=N)N)NC(=O)[C@H]([C@@H](C)O)NC(=O)[C@@H](CCCNC(=N)N)NC(=O)[C@H](Cc2ccccc2)NC(=O)[C@@H](Cc2ccccc2)NC1=O is reported as over 16 µg/mL (Acanthamoeba castellanii; trophozoites).
O=C(O)c1cn(C2CC2)c2cc(N3CCNCC3)c(F)cc2c1=O has a biofilm inhibition of 85% (Staphylococcus aureus; ATCC 33591 MRSA; 1×MIC).
For O=C(Cc1ccc(Cl)c(Cl)c1)N1CCCCC1CN1CCCC1 (stereo not drawn), the IC50 was 5.01 µM (Plasmodium falciparum; 7G8).
With Cn1c(=O)ccc2ccc(F)c(CCNC[C@H]3CN(c4cnc5c(n4)NC(=O)CO5)C(=O)O3)c21 the MIC50 was under 0.015 µg/mL (Clostridioides difficile).
CC(C)[C@H]1NC(=O)[C@H](Cc2ccccc2)NC(=O)CNC(=O)[C@@H](Cc2c[nH]c3ccccc23)NC(=O)[C@H](CCCCN)NC(=O)[C@@H](CCCN)NC1=O has an IC90 of over 16 µg/mL (Acanthamoeba castellanii; trophozoites).
The mortality of CN(C)c1nc(NCc2ccc(OC(F)(F)F)cc2)c(/N=N/c2ccc(Cl)cc2)c(N(C)C)n1 is reported as 100% (Ostrinia furnacalis; leaf dipping; 200 mg/L, 96 h).
C[C@@H](O)[C@H]1C(=O)N2C(C(=O)O)=C(S[C@@H]3CN[C@H](C(=O)N(C)C)C3)[C@H](C)[C@H]12: “bacterial burden, best” 7.2 log10 CFU/thigh (Klebsiella pneumoniae; NDM-producing, neutropenic BALB/c mouse, thigh infection, thigh; dose not given, 2 h).
CN(C)CCOC(C)(c1ccccc1)c1ccccn1 (stereo not drawn) gave an IC50 of 12.6 µM (Plasmodium falciparum; 3D7).
For O=C(NN=Cc1ccc(O)c(Br)c1)c1cccc(Br)c1, “MIC in combination” read 0.15 µg/mL (Cryptococcus neoformans; concentration not given, with: caspofungin).
COC(=O)c1cccc(C#CCCOCCCCCCNC[C@H](O)c2cc(Cl)c(N)c(Cl)c2)c1 gave an EC50 of 1.41 ± 0.76 µM (Plasmodium falciparum; parasite growth, SYBR Green; 3D7 DHODH E182D; 72 h).
For CC(C)Oc1ccc(-c2nc(-c3cccc4c3CC[C@@H]4NCCO)no2)cc1C#N, the inhibition was at least 50% (Clostridioides difficile; ATCC 43255; 45 µM, 1 h, spores).
The combination index of COC(=O)N[C@H](C(=O)N1CCC[C@H]1c1ncc(-c2ccc(-c3ccc(-c4cnc([C@@H]5CCCN5C(=O)[C@@H](NC(=O)OC)C(C)C)[nH]4)cc3)cc2)[nH]1)C(C)C is reported as 0.85 (Hepatitis C virus; replicon cells, genotype 1a; 90% effect level, with: NS3 inhibitor, ratio 1:1).
Brc1ccc(CCNC2CCCc3c2[nH]c2ccc(-c4ccccc4)cc32)cc1 (stereo not drawn) — result for “MIC fold change”: 4 (Streptococcus pneumoniae; concentration not given, 10% fetal bovine serum; baseline: without serum).
C[C@@H](O)[C@@H]1NC(=O)[C@H](Cc2ccccc2)NC(=O)[C@@H](Cc2ccccc2)NC(=O)[C@H]([C@@H](C)O)NC(=O)[C@@H](CCCCN)NC(=O)[C@H](CC(=O)O)NC1=O gave an IC50 of 14.2 µg/mL (Acanthamoeba castellanii; trophozoites).
The MIC50 of CO[C@H]1[C@H](O[C@H]([C@H]2O[C@@H](n3ccc(=O)[nH]c3=O)[C@H](O)[C@@H]2O)[C@H](NCCCNC(=O)[C@@H](NC(=O)[C@@H](NC(=O)N[C@H](C(=O)O)C(C)C)[C@@H]2CCN=C(N)N2)[C@@H](OC(=O)CCCCCCCCCCCCN(O)C(=N)N)C(C)C)C(=O)O)O[C@H](CN)[C@H]1O is reported as over 35 µg/mL (Candida glabrata; alamar blue; DSY565 (NR-51686)).

A few entries again:
Nc1nc2ccc(Oc3cccnc3)cc2s1 gave a swarming inhibition of 47.7% (Pseudomonas aeruginosa; swarming area; PA14-lux; 200 µM, 24 h; baseline: DMSO).
C#Cc1cccc(C=NNC(=O)c2ccc(Br)cc2)c1O gave an FICI of 1.67 (Cryptococcus neoformans; H99; unit not given, with: fluconazole; lower = more synergy).
CS(=O)(=O)CCCn1c(Cn2c(=O)n(CC(F)(F)F)c3ccncc32)cc2cc(Cl)ccc21: “LS mean difference vs placebo” 0.69 log10 copies/mL (respiratory syncytial virus; RT-qPCR; hospitalized infants 1-24 months, nasal swab; oral, 8 mg/kg daily, day 4, cohort 6-24 months; baseline: placebo).
CC(C)[C@@H]1NC(=O)[C@@H](Cc2ccccc2)NC(=O)[C@H](Cc2ccccc2)NC(=O)[C@@H]([C@H](C)O)NC(=O)[C@H]([C@@H](C)O)NC(=O)[C@@H](CCCNC(=N)N)NC1=O gave an IC50 of over 16 µg/mL (Acanthamoeba castellanii; trophozoites).
Cc1c2c(nn1C)CSCc1cc(n(C)n1)CSc1cc(c3ccccc3c1)OCCCc1c(C(=O)O)n(C)c3c-2c(Cl)ccc13 has a fold change of 21.9 (Staphylococcus aureus; label-free quantitative proteomics, item: SAOUHSC_00435 protein; SA113; concentration not given; baseline: untreated control).
With CC(C)[C@@H]1NC(=O)[C@@H](CCCN)NC(=O)[C@H]([C@@H](C)O)NC(=O)[C@@H](CCCN)NC(=O)[C@H](Cc2ccccc2)NC(=O)[C@@H](C)NC(=O)[C@@H](C(C)C)NC(=O)[C@@H](C)NC(=O)[C@H](Cc2c[nH]c3ccccc23)NC(=O)[C@@H](Cc2c[nH]c3ccccc23)NC1=O the IC90 was over 16 µg/mL (Acanthamoeba castellanii; trophozoites).
